Results collected from several papers.
Compare with care: the assays were run in different laboratories. ± marks the error that the study gave.

SMILES | target or system | test | system | setting | measurement | result
Cc1nnc(S(=O)(=O)CC(=O)C23CC4CC(CC(C4)C2)C3)s1 | – | metabolic stability | human, liver microsomes | – | half-life | 30 to 40 min
CC[C@H](C)[C@@H]1NC(=O)[C@H](Cc2ccc(O)cc2)NC(=O)[C@@H](N)CSSC[C@@H](C(=O)N2CCC[C@H]2C(=O)N[C@@H](CC(C)C)C(=O)NCC(N)=O)NC(=O)[C@H](CC(N)=O)NC(=O)[C@H](CCC(N)=O)NC1=O | – | microdialysis, radioimmunoassay | C57BL/6J male mice, wild type, amygdala extracellular fluid | intranasal, 12 µg, time to half of Cmax | half-life | 25.9 ± 8.6 min
c1ccc(C2Cc3ccccc3N2)cc1 (stereo not drawn) | HEK293 NF-κB luciferase reporter | reporter gene, measured: NF-κB | – | 50 µM, 6 h, with: TNFα | inhibition | 65 ± 4.1%
CC1CCN(Cc2no[n+]([O-])c2-c2ccc(F)cc2)CC1 | – | – | C57BL/6 mice, male, plasma and forebrain | intraperitoneal or oral, 20 mg/kg, range over both routes | half-life | 50 to 110 min
CCCCC[N+]1(CC(=O)OC2CCCCCCCCCCC2)CCCCC1.[I-] | – | metabolic stability | human, liver microsomes | 1 µM, pH 7.4 | half-life | < 2 min
C#C[C@]1(COP(=O)(O)OP(=O)(O)OP(=O)(O)O)O[C@@H](n2cnc3c(N)nc(F)nc32)C[C@@H]1O | human PBMC tumour model | – | host not given, plasma | oral, 15 mg, single dose, fasted | half-life | 9690 min
CC(C)[C@H](NC(=O)[C@@H]1CCCN1C(=O)[C@H](CCCNC(=N)N)NC(=O)[C@H](CS)NC(=O)[C@H](Cc1c[nH]c2ccccc12)NC(=O)[C@H](CCCNC(=N)N)NC(=O)[C@@H](Cc1ccccc1)NC(=O)[C@H](Cc1c[nH]cn1)NC(=O)[C@H](CCC(=O)O)NC(=O)[C@H](CS)NC(=O)[C@H](CS)NC(=O)[C@H](CCCNC(=N)N)NC(=O)[C@@H]1CC(=O)N[C@@H](CCCNC(=N)N)C(=O)N[C@@H](C)C(=O)N[C@@H](CC(=O)O)C(=O)N[C@H](Cc2ccc(O)cc2)C(=O)N1)C(N)=O [technetium-99m labelled] | – | – | C57 mouse, intestine | intravenous, 0.037 MBq, 2 h | tissue uptake | 1.38 ± 0.41 %ID
O=C(Nc1cc2nc(C3CCCCC3)[nH]c2cc1N1CCCC1)c1ccccc1 | Vero | cytotoxicity, Alamar Blue | – | 3 days, 37 °C | IC50 | > 100 µg/mL
OCCc1ccc(O)cc1 | – | – | Balb/c tumour-bearing mice, plasma | oral, 109.2 mg/kg SNZ | half-life | 39.6 min
CC(C)(C)c1cc(C(C)(C)C)c(NC(=O)c2c[nH]c3ccccc3c2=O)cc1O | Calu-3 | – | – | 4 h, basal to apical transport | amount remaining in donor | 57 to 71%
CC(C)[C@H](NC(=O)[C@@H]1CCCN1C(=O)[C@H](CCCNC(=N)N)NC(=O)[C@H](CS)NC(=O)[C@H](Cc1c[nH]c2ccccc12)NC(=O)[C@H](CCCNC(=N)N)NC(=O)[C@@H](Cc1ccccc1)NC(=O)[C@H](Cc1c[nH]cn1)NC(=O)[C@H](CCC(=O)O)NC(=O)[C@H](CS)NC(=O)[C@H](CS)NC(=O)[C@H](CCCCN)NC(=O)[C@@H]1CC(=O)N[C@@H](CCCNC(=N)N)C(=O)N[C@@H](C)C(=O)N[C@@H](CC(=O)O)C(=O)N[C@H](Cc2ccc(O)cc2)C(=O)N1)C(N)=O [technetium-99m labelled] | – | – | C57 mice, blood | intravenous, 0.037 MBq, 4 h | tissue uptake | 0.2 ± 0.09 %ID/g
Cn1c(-c2ccc(C(N)=O)cc2F)nnc1C(C)(C)Oc1c(F)cc(Cl)cc1F | – | – | elderly non-Japanese subjects, plasma | oral, 20 mg single dose, day 1, median | half-life | 933 min
C[N+]1(CC(=O)OC2CCCCCCCCC2)CCCCC1.[I-] | – | metabolic stability | human, liver microsomes | 1 µM, pH 7.4 | half-life | 7.7 min
CCC(CC)COC(=O)[C@H](C)N[P@](=O)(OC[C@H]1O[C@@](C#N)(c2ccc3c(N)ncnn23)[C@H](O)[C@@H]1O)Oc1ccccc1 | – | metabolic stability | human, liver microsomes | 1 µM, pH 7.4 | half-life | 1.1 min
C[N+]1(CC(=O)OC2CCCCCCCCCCC2)CCNCC1.[I-] | – | metabolic stability | human, liver microsomes | 1 µM, pH 7.4 | half-life | 4 min
CCCC1O[C@@H]2C[C@H]3[C@@H]4CCC5=CC(=O)C=C[C@]5(C)[C@H]4[C@@H](O)C[C@]3(C)[C@]2(C(=O)CO)O1 (stereo partly drawn) | – | – | CD1 mice, plasma | subcutaneous, 0.2 mg/kg | half-life | 60 min
CCC[N+]1(CC(=O)OC2CCCCCCCCCCC2)CCCCC1.[I-] | – | metabolic stability | human, liver microsomes | 1 µM, pH 7.4 | half-life | < 2 min
CNCc1ccc(-c2[nH]c3cc(F)cc4c3c2CCNC4=O)cc1 | – | – | human | oral | half-life | ~1020 min

Repeated from above:
SMILES | target or system | test | system | setting | measurement | result
O=C(Nc1cc2nc(C3CCCCC3)[nH]c2cc1N1CCCC1)c1ccccc1 | Vero | cytotoxicity, Alamar Blue | – | 3 days, 37 °C | IC50 | > 100 µg/mL
OCCc1ccc(O)cc1 | – | – | Balb/c tumour-bearing mice, plasma | oral, 109.2 mg/kg SNZ | half-life | 39.6 min
